Experimental data from different studies.
A part holds a random share of what one study measured. “And” joins repeats or separate records; there may be more than shown. Numbers after ± are the reported error.
UniProt P41145, sequence (whole entry, looked up): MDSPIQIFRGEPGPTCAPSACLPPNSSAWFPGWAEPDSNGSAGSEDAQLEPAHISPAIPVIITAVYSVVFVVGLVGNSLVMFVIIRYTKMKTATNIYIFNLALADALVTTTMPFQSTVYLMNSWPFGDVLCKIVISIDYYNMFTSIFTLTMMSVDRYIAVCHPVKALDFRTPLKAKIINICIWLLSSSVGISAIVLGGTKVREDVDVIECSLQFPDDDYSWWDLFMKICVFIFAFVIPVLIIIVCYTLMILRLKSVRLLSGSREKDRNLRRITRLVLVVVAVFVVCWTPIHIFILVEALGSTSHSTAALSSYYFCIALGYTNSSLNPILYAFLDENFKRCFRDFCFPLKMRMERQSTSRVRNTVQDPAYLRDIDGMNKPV

Study 1
Structure (SMILES): Cn1cc(-c2cccc(CN3CCC4(CC3)COc3c4ccc4c3CN([C@H]3CCC(=O)NC3=O)C4=O)c2)cn1
Species: Crbn I391V mouse, MC-38 tumour
Quantity: tumour volume
oral, daily, 30 mg/kg, day 15, anti-PD1 combination study: 301 mm3 and 322 mm3 and 508 mm3 and 566 mm3 and 897 mm3
30 mg/kg, day 25, with: anti-LAG3 antibody 10 mg/kg weekly: 961 mm3 and 41.4 mm3 and 417 mm3 and 878 mm3 and 512 mm3 and 2480 mm3
30 mg/kg, day 11, with: anti-LAG3 antibody 10 mg/kg weekly: 361 mm3 and 171 mm3 and 807 mm3 and 608 mm3 and 381 mm3
oral, 30 mg/kg once daily, day 10: 195 mm3 and 286 mm3 and 70.9 mm3 and 162 mm3 and 198 mm3
30 mg/kg, day 19, with: anti-LAG3 antibody 10 mg/kg weekly: 48.7 mm3 and 562 mm3 and 201 mm3 and 513 mm3 and 1040 mm3 and 979 mm3 and 1080 mm3 and 318 mm3
30 mg/kg, day 32, with: anti-LAG3 antibody 10 mg/kg weekly: 1100 mm3 and 1340 mm3 and 144 mm3
30 mg/kg, day 29, with: anti-LAG3 antibody 10 mg/kg weekly: 895 mm3 and 2360 mm3 and 718 mm3 and 2010 mm3 and 102 mm3
oral, daily, 30 mg/kg, day 19, anti-PD1 combination study: 415 mm3 and 1200 mm3 and 485 mm3 and 230 mm3 and 436 mm3
oral, daily, 30 mg/kg, day 39, anti-PD1 combination study: 2110 mm3

Study 2
SMILES: CCCCC[C@@H](O)CC(=O)N[C@@H]1C(=O)N[C@H](CCCNC(=N)N)C(=O)N[C@@H](CO)C(=O)NCC(=O)N(C)[C@H](Cc2ccccc2)C(=O)N[C@@H](CC(C)C)C(=O)N[C@H](CCCNC(=N)N)C(=O)N[C@@H](CCC(=O)O)C(=O)N[C@H](CCC(N)=O)C(=O)N[C@H](Cc2c[nH]c3ccccc23)C(=O)N[C@@H]([C@@H](C)CC)C(=O)N[C@@H]([C@@H](C)O)C(=O)O[C@@H]1C
Organism: Staphylococcus aureus
Strain: USA300
Tested at: 2 x MIC
Quantity: viable cells
60 min: 500 CFU/mL and 300 CFU/mL
180 min: 200 CFU/mL and 300 CFU/mL
30 min: 1700 CFU/mL and 1500 CFU/mL and 1400 CFU/mL
0 min: 3.7e+08 CFU/mL and 4.8e+08 CFU/mL and 4.2e+08 CFU/mL
15 min: 5000 CFU/mL and 4500 CFU/mL and 5500 CFU/mL

Study 3
Target: Membrane-associated tyrosine- and threonine-specific cdc2-inhibitory kinase (PKMYT1, Homo sapiens, UniProt Q99640)
Effect on: binding
Method: HTRF
Tested at: 37.04 nM
Quantity: inhibition
Target sequence (Q99640 1-499): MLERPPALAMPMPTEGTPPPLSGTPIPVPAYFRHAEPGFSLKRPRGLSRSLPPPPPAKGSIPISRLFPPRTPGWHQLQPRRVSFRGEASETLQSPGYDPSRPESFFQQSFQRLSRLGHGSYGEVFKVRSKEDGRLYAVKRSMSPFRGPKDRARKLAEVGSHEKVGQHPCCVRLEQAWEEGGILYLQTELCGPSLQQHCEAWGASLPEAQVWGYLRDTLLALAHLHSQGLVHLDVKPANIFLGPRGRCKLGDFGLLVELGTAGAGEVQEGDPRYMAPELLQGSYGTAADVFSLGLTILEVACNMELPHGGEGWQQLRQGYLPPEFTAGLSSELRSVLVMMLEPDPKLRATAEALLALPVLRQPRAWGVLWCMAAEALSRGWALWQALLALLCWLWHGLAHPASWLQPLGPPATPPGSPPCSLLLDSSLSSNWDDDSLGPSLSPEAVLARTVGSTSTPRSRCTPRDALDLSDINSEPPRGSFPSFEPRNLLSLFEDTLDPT
Cc1ccc(O)c(C)c1-c1cnc2[nH]c(-c3cnc(N4CCC(CN5CCN(c6ccc(C(=O)NC7CCC(=O)NC7=O)c(F)c6)CC5)CC4)nc3)cc2c1C#N (racemic): 96.2% and 95.6%
Cc1ccc(O)c(C)c1-c1cnc2[nH]c(-c3cnc(N4CCC(CN5CCN(c6ccc7c8c(cccc68)C(=O)N7C6CCC(=O)NC6=O)CC5)CC4)nc3)cc2c1C#N (racemic): 90.1% and 89.8%
Cc1ccc(O)c(C)c1-c1cnc2[nH]c(-c3cnc(N4CCC(CN5CCN(c6ccc(N7CCC(=O)NC7=O)cc6F)CC5)CC4)nc3)cc2c1C#N: 95.6% and 95.5%

Single results of other studies
OPRD1 with β-arrestin2: Delta-type opioid receptor, with β-arrestin2 (OPRD1, Homo sapiens, UniProt P41143)
UniProt P41143, sequence (whole entry, looked up): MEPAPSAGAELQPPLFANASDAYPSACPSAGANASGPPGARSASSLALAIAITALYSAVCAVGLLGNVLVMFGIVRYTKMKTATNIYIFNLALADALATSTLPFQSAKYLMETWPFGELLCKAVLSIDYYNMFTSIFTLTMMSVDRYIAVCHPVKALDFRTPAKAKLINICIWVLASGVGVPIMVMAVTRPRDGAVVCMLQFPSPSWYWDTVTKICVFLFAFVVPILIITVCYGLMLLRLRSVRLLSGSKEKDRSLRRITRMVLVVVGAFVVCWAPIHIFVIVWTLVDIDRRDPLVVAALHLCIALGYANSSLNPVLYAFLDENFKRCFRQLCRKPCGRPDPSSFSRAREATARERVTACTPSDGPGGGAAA
CCCCCCCCN1CCC23c4c5ccc(O)c4OC2c2nc4ccccc4cc2CC3(O)C1C5 (stereo not drawn) — EC50 (OPRD1 with β-arrestin2; human cells): 1000 nM
N=C(N)NCCCCCN1CC[C@]23c4c5ccc(O)c4O[C@H]2c2[nH]c4ccccc4c2C[C@@]3(O)[C@H]1C5 — Emax (Kappa-type opioid receptor, with Gi1 (OPRK1, Homo sapiens, UniProt P41145); human cells): 61 ± 4%
NC(=O)NCCCCCCN1CCC23c4c5ccc(O)c4OC2c2nc4ccccc4cc2CC3(O)C1C5 (stereo not drawn) — Emax (OPRD1 with β-arrestin2; human cells): 20 ± 4%
N=C(N)NCCCCCCN1CCC23c4c5ccc(O)c4OC2c2nc4ccccc4cc2CC3(O)C1C5 (stereo not drawn) — seizure score (modified Racine scale; C57BL/6J mice, male; intracerebroventricular, 100 nmol, 55 min; direction not given): 0

For quick reference, copied from above (study 1):
30 mg/kg, day 32, with: anti-LAG3 antibody 10 mg/kg weekly: 1100 mm3 and 1340 mm3 and 144 mm3
30 mg/kg, day 29, with: anti-LAG3 antibody 10 mg/kg weekly: 895 mm3 and 2360 mm3 and 718 mm3 and 2010 mm3 and 102 mm3
oral, daily, 30 mg/kg, day 19, anti-PD1 combination study: 415 mm3 and 1200 mm3 and 485 mm3 and 230 mm3 and 436 mm3
